Experimental data pooled from the literature.
A part holds a random share of what one study measured.

Block 1 — technique: universal PBM; form: double-stranded DNA, one strand shown; sample: in vitro; concentration: not given; direction: higher = stronger binding; measurement: E-score
Target: Sal-like protein 4, full length isoform B (SALL4, Homo sapiens, UniProt Q9UJQ4-2, residues 1-616)
Notes: 8-mer, flanks averaged, mean of replicates
CGACATTA: 0.157
ACGTACCC: 0.0129
CGCGGCGC: -0.228
ATTGTACC: 0.134
AGGAGTTC: -0.103
CAAGCAAA: 0.149
CCCTACTC: -0.0568
CCCGTTGA: -0.194

Block 2 — technique: protein-binding microarray; form: double-stranded DNA, one strand shown; sample: in vitro; concentration: not given; direction: higher = stronger binding; measurement: E-score
Target: Transcription factor SOX-2, HMG box (SOX2, Homo sapiens, UniProt P48431, residues 19-118)
Sequence of UniProt P48431 (19-118, looked up): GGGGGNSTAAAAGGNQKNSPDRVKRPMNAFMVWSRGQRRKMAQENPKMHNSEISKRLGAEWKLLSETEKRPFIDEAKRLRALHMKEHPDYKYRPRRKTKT
Notes: k-mer, scored over probes, only values ≥0.25
TATTTGA: 0.253
CAATGGG: 0.337
ATTGACG: 0.366
ACAATAT: 0.452
AATGTAT: 0.327
AATCAAT: 0.381
ATTCAAC: 0.359

Block 3 — observed: enzyme activity; action: inhibitor; concentration: 20 µM; notes: hit confirmation, no DTT; measurement: inhibition
Target: Replicase polyprotein 1ab, main protease (rep, Severe acute respiratory syndrome coronavirus 2, UniProt P0DTD1)
CC[C@]12C=CCN3CC[C@@]4(c5cc([C@@]6(C(=O)OC)C[C@@H]7C[C@@H](C(C)(F)F)C[N@](CCc8c6[nH]c6ccccc86)C7)c(OC)cc5N(C)[C@H]4[C@@](O)(C(=O)OC)[C@@H]1OC(C)=O)[C@@H]32: 97.2%
C=CC(=O)c1ccc2ccccc2c1: 92.3%
Oc1cc2c(cc1O)CN(C(=S)NCCc1ccc(Cl)cc1)CCC2: 52.5%
O=C(O)C(O)Cc1ccc(O)c(O)c1 (centres unmarked): 85.6%
O=NN(CCCl)C(=O)NC1CCCCC1: 52.5%

Block 4 — action: inhibitor; concentration: 20 µM; measurement: inhibition
Target: Replicase polyprotein 1ab, nsp13 helicase (rep, Severe acute respiratory syndrome coronavirus 2, UniProt P0DTD1)
CCc1ccc(Cc2ccc3c(c2)[C@]2(OC3)O[C@H](CO)[C@@H](O)[C@H](O)[C@H]2O)cc1: 5.35%
C=CCn1c(=O)c2cnc(Nc3ccc(N4CCN(C)CC4)cc3)nc2n1-c1cccc(C(C)(C)O)n1: 7.23%
CNCC/C=C/c1cccnc1: 1.77%
CC(C)(Oc1ccc(C2CC2(Cl)Cl)cc1)C(=O)O (centres unmarked): -2.67%
CC[C@H](C)[C@H](NC(=O)[C@H](Cc1ccc(O)cc1)NC(=O)[C@@H](NC(=O)[C@H](CCCNC(=N)N)NC(=O)[C@@H](N)CC(=O)O)C(C)C)C(=O)N[C@@H](Cc1c[nH]cn1)C(=O)N1CCC[C@H]1C(=O)O: 1.68%
CC(C)(CO)Cc1cc(C(C)(C)C)c(O)c(C(C)(C)C)c1: 2.6%
Cn1cc(-c2ccc(S(=O)(=O)n3ccc(/C=C/C(=O)Nc4ccccc4N)c3)cc2)cn1: 7.88%
Oc1ccc(/C=C/c2cc(O)cc(O)c2)cc1: 5.53%
CC(C)(C)S(=O)(=O)N[C@H]1CC[C@H](C(=O)Nc2ccc(C(F)(F)F)cn2)CC1: 4.17%
CN1CCCC(CN2c3ccccc3Sc3ccccc32)C1 (centres unmarked): 8.14%
Cn1c([N+](=O)[O-])cnc1COC(N)=O: 0.99%
COc1cc(C(=O)c2c(C)oc3c(O)c(OC)ccc23)cc(OC)c1OC: 9.77%
N[C@H](C(=O)O)[C@H](O)c1ccc(O)c(O)c1: 6.96%
CCCSc1ccc2[nH]c(NC(=O)OC)nc2c1: -0.32%
NC(=O)c1cc[n+](CC2=C(C(=O)[O-])N3C(=O)[C@@H](NC(=O)Cc4cccs4)[C@H]3SC2)cc1: 11.2%
O=C(CBr)N1CC([N+](=O)[O-])([N+](=O)[O-])C1: 8.94%
CCC[C@@H](NC(=O)N1C(=O)C(CC)(CC)[C@@H]1Oc1ccc(C(=O)N2CCN(C)CC2)cc1)c1ccc2c(c1)OCO2: 2.25%
O=C(/C=C/c1ccc(O)c(O)c1)OCCc1ccccc1: 1.32%
CSc1ccc(C(=O)N[C@@H]2CCCC[C@@H]2NC(=O)CNC(=O)c2cc(C(F)(F)F)ccc2NC(=O)NC(C)C)cc1: -3.42%
CC(C)(C)NS(=O)(=O)c1cncc(-c2cc(F)c3nc(N)nn3c2)c1: 1.98%
CCCOc1ccn2c(C(C)=O)cc(-c3ccccc3S(C)(=O)=O)c2c1: 1.73%
CC(C)(Sc1ccc(CCN(CCCCC2CCCCC2)C(=O)NC2CCCCC2)cc1)C(=O)O: 6.42%
CCCOC(=O)c1ccc(O)cc1: 12%
Nc1nc2[nH]cc(CCc3ccc(C(=O)N[C@@H](CCC(=O)O)C(=O)O)cc3)c2c(=O)[nH]1: 1.93%
CCOC(=O)CSCCC1NC(C(=O)O)CS1 (centres unmarked): -3.12%

Block 5 — cell line: HEK-293T; observed: pseudovirus infection; technique: FDA-approved drug library screen; organism: VSV pseudotyped with SARS-CoV-2 spike; concentration: 10 µM; time: 16 h; baseline: vehicle-treated; measurement: GFP-positive cells
COc1ccc(OC)c(C(O)C(C)N)c1 (centres unmarked): 105%
CCCCNC(=O)NS(=O)(=O)c1ccc(C)cc1: 73.6%
CCCCCCCC(=O)N[C@H](CN1CCCC1)[C@H](O)c1ccc2c(c1)OCCO2: 52%
CC(C)(O/N=C(\C(=O)N[C@@H]1C(=O)N2C(C(=O)[O-])=C(C[n+]3ccccc3)CS[C@H]12)c1csc(N)n1)C(=O)O: 88.7%
CNS(=O)(=O)Cc1ccc2[nH]cc(CCN(C)C)c2c1: 105%

For quick reference, copied from above (block 4):
CCCSc1ccc2[nH]c(NC(=O)OC)nc2c1: -0.32%
NC(=O)c1cc[n+](CC2=C(C(=O)[O-])N3C(=O)[C@@H](NC(=O)Cc4cccs4)[C@H]3SC2)cc1: 11.2%
O=C(CBr)N1CC([N+](=O)[O-])([N+](=O)[O-])C1: 8.94%
CCC[C@@H](NC(=O)N1C(=O)C(CC)(CC)[C@@H]1Oc1ccc(C(=O)N2CCN(C)CC2)cc1)c1ccc2c(c1)OCO2: 2.25%
O=C(/C=C/c1ccc(O)c(O)c1)OCCc1ccccc1: 1.32%
CSc1ccc(C(=O)N[C@@H]2CCCC[C@@H]2NC(=O)CNC(=O)c2cc(C(F)(F)F)ccc2NC(=O)NC(C)C)cc1: -3.42%
CC(C)(C)NS(=O)(=O)c1cncc(-c2cc(F)c3nc(N)nn3c2)c1: 1.98%
CCCOc1ccn2c(C(C)=O)cc(-c3ccccc3S(C)(=O)=O)c2c1: 1.73%
